# Results collected from several papers.
# ± marks the error that the study gave.
SMILES,method,matrix,pH,temperature,setting,logP
NC(=O)c1ccc(C(=O)Nc2cc(C3CC3)[nH]n2)cc1,,"octanol/buffer, 40 mM buffer",pH 11,,,1.25
CC(C)CCNC(=O)c1ncccc1O,"shake-flask, potentiometric",1-octanol/water,,,,3.2
O=C(CC1OCCN(Cc2ccccc2)C1=O)Nc1ccc2c(c1)OCCO2 (stereo not drawn),,octanol/buffer,pH 11,,known kinase inactives set,3.67
O=C(O)CNC(=O)c1ncc(-c2cccc(F)c2)cc1O,"shake-flask, potentiometric",1-octanol/water,,,,2.8
Cc1ccnc(NS(=O)(=O)c2ccc(NC(=O)c3cncc(Br)c3)cc2)n1,,octanol/buffer,pH 11,,,-0.44
C[C@@H](NC(=O)c1ccccc1CCC(=O)NNC(=O)/C=C/C(=O)OCC1CCCC1)c1cccc2ccccc12,,,,,,4.8
C=Cc1c(C)c2cc3nc(c4c5[nH]c(cc6nc(cc1[nH]2)C(C)=C6CC)c(C)c5C(=O)C4)[C@@H](CCC(=O)OC)[C@@H]3C,,octanol/water,,,,0.801
CN1CCN(C(=O)c2ccccc2N(Cc2ccccc2)S(C)(=O)=O)CC1,,octanol/buffer,pH 11,,known kinase inactives set,1.54
COC(=O)/C=C/C(=O)NNC(=O)CCc1ccccc1C(=O)N[C@H](C)c1cccc(C2=CCOCC2)c1,,,,,,2.4
CN(C)C(=O)c1ncccc1O,"shake-flask, potentiometric",1-octanol/water,,,,< -0.5
CCCCC/C=C\C/C=C\CCCCCCCC(=O)O.Cc1cc(/C=C/C#N)cc(C)c1Nc1ccnc(Nc2ccc(C#N)cc2)n1,,octanol/water,,room temperature,,2.56 ± 0.03
COC(=O)CNC(=O)c1nc(Cl)c2ccccc2c1O,"shake-flask, potentiometric",1-octanol/water,,,,3.3
C[C@@H](NC(=O)c1ccccc1CCC(=O)NNC(=O)/C=C/C(=O)OCc1ncccn1)c1cccc2ccccc12,,,,,,2.7
CCOC(=O)CNC(=O)c1ncccc1O,"shake-flask, potentiometric",1-octanol/water,,,,0.3
C=Cc1c(C)c2cc3nc(c4c5[nH]c(cc6nc(cc1[nH]2)C(C)=C6CC)c(C)c5C(=O)C4)[C@@H](CCC(=O)O)[C@@H]3C,,octanol/water,,,,0.534

# For quick reference, copied from above:
SMILES,method,matrix,pH,temperature,setting,logP
C[C@@H](NC(=O)c1ccccc1CCC(=O)NNC(=O)/C=C/C(=O)OCc1ncccn1)c1cccc2ccccc12,,,,,,2.7
